# Assay results collected from several papers.
# Every numbered part comes from another study and shows a few of its results, in no order. Positions count from the first letter of the parent shown.

# Series 1
# Target: tungstate, free oxyanion
# Method: microfluidic competitive inhibition
# Sample: in vitro, cell-free expressed
# Tested at: not given
# Setting: derived from inhibition constants, unchanged parent 2230 nM
# Direction: lower = stronger binding
# Starting sequence: PafA, mature enzyme, eGFP fusion (Elizabethkingia meningoseptica, UniProt Q9KJX5); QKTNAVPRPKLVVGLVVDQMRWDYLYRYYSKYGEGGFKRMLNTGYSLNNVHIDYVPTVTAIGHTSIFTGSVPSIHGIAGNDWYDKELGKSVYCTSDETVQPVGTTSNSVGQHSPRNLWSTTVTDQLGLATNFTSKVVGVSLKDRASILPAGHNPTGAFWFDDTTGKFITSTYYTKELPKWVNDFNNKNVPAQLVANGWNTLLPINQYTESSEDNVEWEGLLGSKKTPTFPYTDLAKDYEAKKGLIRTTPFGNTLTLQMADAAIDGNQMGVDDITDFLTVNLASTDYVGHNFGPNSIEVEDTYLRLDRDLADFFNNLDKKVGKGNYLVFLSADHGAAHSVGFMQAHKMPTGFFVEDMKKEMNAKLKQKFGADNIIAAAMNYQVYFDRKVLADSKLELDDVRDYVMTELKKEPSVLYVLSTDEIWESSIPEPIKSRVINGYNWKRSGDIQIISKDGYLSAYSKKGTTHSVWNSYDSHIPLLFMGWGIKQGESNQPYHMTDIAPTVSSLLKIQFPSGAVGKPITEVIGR
Change,oxyanion analog dissociation constant [µM]
T130G,2.08
K508G,1.07
K365V,2.04

# Series 2
# Target: TAR DNA-binding protein 43, full length, His tag (TARDBP, Homo sapiens, UniProt Q13148, residues 1-414)
# Method: RNA Bind-n-Seq
# Molecule type: RNA
# Sample: in vitro
# Tested at: 20 nM
# Setting: 6-mer, flanks averaged, single round
# With: 150 mM KCl
# Reference: input library
# Direction: higher = stronger binding
Sequence,6-mer enrichment (R)
UGUUGC,0.815
CACGGG,2.26
GUCAGA,0.874
CCCCAU,0.665
CGACAG,0.912
ACCUAC,0.613
CCAGGU,0.884
GUAACU,0.642

# Series 3
# Target: CCNB2, cyclin fold, Cln2 fusion (human)
# Method: yeast growth competition, sequencing
# Sample: yeast
# Setting: strong parent motif
# Reference: not given
# Direction: higher = stronger binding
# Starting sequence: viral docking peptide; KKAKRRLFTISDS; partner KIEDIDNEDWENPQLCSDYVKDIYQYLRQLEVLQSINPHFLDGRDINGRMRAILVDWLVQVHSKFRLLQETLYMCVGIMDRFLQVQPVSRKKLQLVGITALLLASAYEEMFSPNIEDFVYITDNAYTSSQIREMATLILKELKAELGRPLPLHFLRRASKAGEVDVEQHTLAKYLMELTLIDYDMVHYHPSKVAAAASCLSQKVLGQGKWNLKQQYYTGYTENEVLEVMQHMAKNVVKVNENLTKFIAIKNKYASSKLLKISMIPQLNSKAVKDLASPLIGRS
Change,normalised enrichment score
L7A,0.235
D12A,0.484
R5K F8L,0.302
T9A,0.473
R5A,0.881
S13A,0.785
R5A L7A,0.341
R5K,0.524
K2A,0.67

# Series 4
# Target: UDP-N-acetylglucosamine--peptide N-acetylglucosaminyltransferase 110 kDa subunit (OGT, Homo sapiens, UniProt O15294)
# Chain of UniProt O15294 (whole entry, looked up): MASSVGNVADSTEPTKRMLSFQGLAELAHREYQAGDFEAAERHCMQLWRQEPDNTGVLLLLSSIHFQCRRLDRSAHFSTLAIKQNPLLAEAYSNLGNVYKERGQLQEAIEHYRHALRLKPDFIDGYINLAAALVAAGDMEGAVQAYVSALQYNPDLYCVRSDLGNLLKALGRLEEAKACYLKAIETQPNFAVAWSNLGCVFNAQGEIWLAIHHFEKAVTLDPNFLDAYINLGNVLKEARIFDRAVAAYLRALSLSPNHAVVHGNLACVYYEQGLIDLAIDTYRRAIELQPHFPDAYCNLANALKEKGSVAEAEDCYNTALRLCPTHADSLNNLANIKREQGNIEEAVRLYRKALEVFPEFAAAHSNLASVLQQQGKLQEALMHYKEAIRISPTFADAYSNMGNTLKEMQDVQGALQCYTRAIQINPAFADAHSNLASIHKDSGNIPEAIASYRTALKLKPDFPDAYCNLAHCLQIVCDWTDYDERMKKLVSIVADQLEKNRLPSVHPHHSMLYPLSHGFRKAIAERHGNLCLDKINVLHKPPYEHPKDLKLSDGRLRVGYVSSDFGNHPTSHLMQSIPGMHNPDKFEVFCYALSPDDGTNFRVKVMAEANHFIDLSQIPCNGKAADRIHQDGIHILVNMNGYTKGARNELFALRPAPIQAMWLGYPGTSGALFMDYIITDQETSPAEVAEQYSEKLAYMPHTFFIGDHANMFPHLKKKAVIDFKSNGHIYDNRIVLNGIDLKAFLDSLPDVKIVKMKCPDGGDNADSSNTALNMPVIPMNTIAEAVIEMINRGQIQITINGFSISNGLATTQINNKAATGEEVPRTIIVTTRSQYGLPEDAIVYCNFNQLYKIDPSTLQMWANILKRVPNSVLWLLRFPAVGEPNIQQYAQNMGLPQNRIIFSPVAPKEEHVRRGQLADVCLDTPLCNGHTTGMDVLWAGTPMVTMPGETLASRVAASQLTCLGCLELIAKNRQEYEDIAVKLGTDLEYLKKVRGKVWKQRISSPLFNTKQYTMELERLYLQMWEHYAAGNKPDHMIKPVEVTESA
# Observed: binding
# Method: phage display NGS
# Molecule type: peptide
# Setting: panning round 2
# Reference: input library
Sequence,minimum log2 enrichment ratio
RHLSHVHNVHSSNSV,2.02
TIAQQSRMMNHHSKH,2.34
WPMDFPMFTHHHFH,2.85
ADFQLTYKPLYQIVA,2.93

# Repeated from above (series 2):
Sequence,6-mer enrichment (R)
CCCCAU,0.665
CGACAG,0.912
ACCUAC,0.613
